# Measurements from different studies.
# Values joined by “and” are separate records of one study, mostly repeats; a detail may differ. Numbers after ± are the reported error.
# Chymotrypsinogen A: Chymotrypsinogen A (Bos taurus, UniProt P00766)
# UniProt P05067, sequence (whole entry, looked up): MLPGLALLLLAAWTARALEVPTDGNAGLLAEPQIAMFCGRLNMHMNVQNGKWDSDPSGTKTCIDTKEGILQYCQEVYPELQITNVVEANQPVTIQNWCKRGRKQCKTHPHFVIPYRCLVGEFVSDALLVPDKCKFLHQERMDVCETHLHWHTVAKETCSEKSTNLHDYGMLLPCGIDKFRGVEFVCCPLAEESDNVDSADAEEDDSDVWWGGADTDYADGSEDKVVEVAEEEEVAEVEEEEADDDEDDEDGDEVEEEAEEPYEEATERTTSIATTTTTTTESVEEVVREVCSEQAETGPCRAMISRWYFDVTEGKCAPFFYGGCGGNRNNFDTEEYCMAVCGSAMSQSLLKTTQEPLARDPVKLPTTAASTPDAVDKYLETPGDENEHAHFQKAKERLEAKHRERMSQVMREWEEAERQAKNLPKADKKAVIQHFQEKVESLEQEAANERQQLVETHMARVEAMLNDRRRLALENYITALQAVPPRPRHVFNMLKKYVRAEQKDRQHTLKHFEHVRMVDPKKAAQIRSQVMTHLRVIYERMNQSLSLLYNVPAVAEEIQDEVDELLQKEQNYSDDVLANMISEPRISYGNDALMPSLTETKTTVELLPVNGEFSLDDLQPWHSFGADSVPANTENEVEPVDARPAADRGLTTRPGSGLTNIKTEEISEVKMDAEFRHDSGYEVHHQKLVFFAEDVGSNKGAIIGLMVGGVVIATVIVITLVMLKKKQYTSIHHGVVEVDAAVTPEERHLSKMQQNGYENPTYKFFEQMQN
# UniProt Q60492, sequence (whole entry, looked up): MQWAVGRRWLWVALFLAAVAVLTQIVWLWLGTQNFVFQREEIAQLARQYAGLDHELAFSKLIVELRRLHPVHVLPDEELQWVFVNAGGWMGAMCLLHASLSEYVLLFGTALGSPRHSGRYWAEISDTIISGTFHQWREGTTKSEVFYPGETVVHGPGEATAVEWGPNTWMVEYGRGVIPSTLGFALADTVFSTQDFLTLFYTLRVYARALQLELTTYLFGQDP
# UniProt P47746, sequence (whole entry, looked up): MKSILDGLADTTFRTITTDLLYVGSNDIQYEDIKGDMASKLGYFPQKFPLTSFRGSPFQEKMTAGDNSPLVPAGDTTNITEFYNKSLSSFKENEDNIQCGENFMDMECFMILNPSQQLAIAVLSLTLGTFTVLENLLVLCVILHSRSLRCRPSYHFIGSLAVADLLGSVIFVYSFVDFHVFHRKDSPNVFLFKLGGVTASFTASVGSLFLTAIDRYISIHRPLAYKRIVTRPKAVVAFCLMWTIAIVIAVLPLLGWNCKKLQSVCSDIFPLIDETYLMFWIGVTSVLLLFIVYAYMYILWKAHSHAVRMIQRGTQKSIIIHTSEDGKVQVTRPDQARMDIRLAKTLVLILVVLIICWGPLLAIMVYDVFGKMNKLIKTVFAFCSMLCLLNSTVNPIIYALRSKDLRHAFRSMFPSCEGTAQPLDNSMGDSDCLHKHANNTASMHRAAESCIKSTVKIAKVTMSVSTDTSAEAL
# UniProt P46098, sequence (whole entry, looked up): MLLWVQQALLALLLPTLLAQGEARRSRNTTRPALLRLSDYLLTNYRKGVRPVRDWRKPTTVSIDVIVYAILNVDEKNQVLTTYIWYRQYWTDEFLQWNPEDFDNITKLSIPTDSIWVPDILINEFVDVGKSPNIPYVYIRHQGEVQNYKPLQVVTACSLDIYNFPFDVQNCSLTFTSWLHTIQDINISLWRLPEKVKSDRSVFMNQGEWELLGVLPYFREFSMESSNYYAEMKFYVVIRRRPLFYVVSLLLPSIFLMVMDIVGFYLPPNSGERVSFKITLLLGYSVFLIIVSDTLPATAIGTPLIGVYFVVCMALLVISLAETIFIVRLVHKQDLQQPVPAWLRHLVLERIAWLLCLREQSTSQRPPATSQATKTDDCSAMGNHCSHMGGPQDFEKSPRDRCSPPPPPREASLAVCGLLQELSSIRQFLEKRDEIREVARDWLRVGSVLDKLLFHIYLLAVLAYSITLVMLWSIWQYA
Compound,target,assay,test system,setting,Ki
CCCC(=O)O[C@@]1(C)CN(Cc2ccccc2)[C@H]2C[C@@H]1CC(=O)[C@@H]2C,"SIGMAR1 (Cavia porcellus, UniProt Q60492)",,,,4.6 µM
c1cc2nc(c1)CSCc1cc(-c3nc4ccccc4s3)cc(n1)CSC2,"Amyloid-beta precursor protein, Aβ42 fibrils (APP, Homo sapiens, UniProt P05067)","amyloid-beta 42 binding, thioflavin T competition",,pH 7.4,1.11 ± 0.72 µM
CCOC(=O)[C@](CC)(CCCSCCOCCOCCN)NC(=O)c1ccc(C2CC2)c(Cc2ccc(F)cc2)n1,"Cnr1 (Mus musculus, UniProt P47746)","ligand displacement, radioligand",,cell membranes,0.229 µM
Cc1ccc([B-](F)(F)F)cc1/N=N/c1ccccc1,Chymotrypsinogen A,"enzyme activity, competitive inhibitor",buffer with 2 vol% DMSO,"pH 7.81, 25 °C, thermally adapted trans state, together with: Suc-AAPF-AMC",5.8 µM and 5.84 µM
OB(O)c1cnn(-c2cc(Cl)ncn2)c1,Chymotrypsinogen A,"enzyme activity, inhibitor, absorbance",,,99 µM
Cc1ccc(/N=N/c2ccccc2)cc1[B-](F)(F)F,Chymotrypsinogen A,"enzyme activity, competitive inhibitor",buffer with 2 vol% DMSO,"pH 7.81, 25 °C, thermally adapted trans state, together with: Suc-AAPF-AMC",12.6 ± 0.557 µM
CCC1(CC)CC(=O)N(C2CCOc3ccc(C(=O)NC4CC(C)(C)Oc5ccccc54)cc32)C(=N)N1 (stereo not shown),"Plasmepsin X (Plasmodium vivax, UniProt A5KAC3)","enzyme activity, inhibitor, peptide cleavage",,,1.1e-05 ± 2e-06 µM
COC(=O)c1ccc(/N=N/c2cccc([B-](F)(F)F)c2)cc1,Chymotrypsinogen A,"enzyme activity, competitive inhibitor",buffer with 2 vol% DMSO,"pH 7.81, 25 °C, thermally adapted trans state, together with: Suc-AAPF-AMC",226 µM
CC(=O)OCC1=C2C(C)=CC(C)=[N+]2[B-](C)(C)n2c(C)cc(C)c21,"Cathepsin B (CTSB, Homo sapiens, UniProt P07858)","enzyme activity, irreversible inhibitor",,"pH 5.5, 25 °C, irradiated 395-750 nm, 15 min, together with: Z-Arg-Arg-AMC",1800 ± 400000 µM
Cn1ccc2c(N3CCN(CCCCOc4ccc5c(c4)NC(=O)CC5)CC3)cccc21,"HTR3A (Homo sapiens, UniProt P46098)","cell-free assay, radioligand",,,> 10 µM
